Assay results pooled from the literature.
Numbered parts are unrelated; each lists some results of a single study. Positions count from the first letter of the parent shown.

Sample 1
Target: Ras GTPase-activating protein-binding protein 1, RRM domain (G3BP1, Homo sapiens, UniProt Q13283)
Chain of UniProt Q13283 (whole entry, looked up): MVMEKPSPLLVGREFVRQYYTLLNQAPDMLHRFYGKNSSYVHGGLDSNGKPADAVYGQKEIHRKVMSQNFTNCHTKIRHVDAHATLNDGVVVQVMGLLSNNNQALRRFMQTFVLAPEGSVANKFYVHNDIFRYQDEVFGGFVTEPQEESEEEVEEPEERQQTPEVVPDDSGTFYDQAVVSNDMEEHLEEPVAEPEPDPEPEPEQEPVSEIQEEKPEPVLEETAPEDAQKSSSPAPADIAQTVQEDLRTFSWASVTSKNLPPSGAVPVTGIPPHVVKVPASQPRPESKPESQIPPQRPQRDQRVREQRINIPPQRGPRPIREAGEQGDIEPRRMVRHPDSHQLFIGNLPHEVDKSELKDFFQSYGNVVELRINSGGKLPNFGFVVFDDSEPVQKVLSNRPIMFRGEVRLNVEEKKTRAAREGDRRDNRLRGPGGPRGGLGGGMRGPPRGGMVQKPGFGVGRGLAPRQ
Technique: RNA Bind-n-Seq
Form: RNA
Matrix: in vitro
Tested at: 1 µM
Setting: whole 134-nt RNA, ends assumed
With: 150 mM KCl
Reference: input library
Reading: higher = stronger binding
`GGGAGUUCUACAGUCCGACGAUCUGGGAGGUGGAUUUUGUUUAUUUUUUUAGCUCAUUUCCAGGGGUGGGAAUUUAUUUUUAAUAUGUGUCAUGAAUAAAGUUGUUUUUGAAAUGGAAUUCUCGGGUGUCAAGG` has a log2 enrichment of 2.28.
For `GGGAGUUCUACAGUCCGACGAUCUGGGAGGUGGAUUUUGUUUAUUUUUUUAGCUCAUUUCCAGGGGUGGGAAUUUUUUUUUAAUAUGUGUCAUGAAUAAAGUUGUUUUUGAAGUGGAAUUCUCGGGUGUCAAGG`, the log2 enrichment was 2.14.
`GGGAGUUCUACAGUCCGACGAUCCUGUGCUACACAUCGUAUGUACCGAAUCGGGGUUUUUUUGGGGAAAAAGGGGAAAAAGGGGAAAGUAUUAUGUUACGCCGUUCGGAUCUGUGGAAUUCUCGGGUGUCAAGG` gave a log2 enrichment of 0.619.
For `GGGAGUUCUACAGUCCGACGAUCUGUGCUACACAUCGUAUGUACCGAAUCGGGGCCCCCCCGGGCCCCCCCGGGGCCCCCCCGGGAAAGUAUUAUGUUACGCCGUUCGGAUCUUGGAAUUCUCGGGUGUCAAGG`, the log2 enrichment was -0.689.
For `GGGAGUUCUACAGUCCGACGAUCUGUGCUACACAUCGUAUGUACCGAAUCGGGGCCCCCCCGGGGCCCCCCCGGGCCCCCCCGGGGAAAGUAUUAUGUUACGCCGUUCGGAUCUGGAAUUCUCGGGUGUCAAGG`, the log2 enrichment was -0.814.
`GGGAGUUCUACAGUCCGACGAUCUGGCCCUGGUGGCAUGCGGGGAGGAAGAGGUGGCCUCAUGGAUCGUGGUGGUCCCGGUGGAAUUUUCAGAGGUGGCCGUGGUGGAGACAGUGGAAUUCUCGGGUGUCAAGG` gave a log2 enrichment of 0.383.
For `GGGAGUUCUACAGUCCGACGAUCUCAAGUCCUGUGCUACACAUCGUAUGUACCGAAUCGGCCCGGGGCCCGGGCCCGGAAAGUAUUAUGUUACGCCGUUCGGAUCUGCACUUCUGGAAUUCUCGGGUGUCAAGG`, the log2 enrichment was -0.565.
For `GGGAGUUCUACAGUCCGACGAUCAAGUCCUGUGCUACACAUCGUAUGUACCGAAUCGGUUUUUUUGGUUUUUUUGGAGGAAAGUAUUAUGUUACGCCGUUCGGAUCUGCACUUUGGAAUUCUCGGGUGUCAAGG`, the log2 enrichment was -0.356.
The log2 enrichment of `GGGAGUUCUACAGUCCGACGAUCCUGUGCUACACAUCGUAUGUACCGAAUCGGGGUUUUUUUGGGGUUUUUUUGGGGAAAGGGGAAAGUAUUAUGUUACGCCGUUCGGAUCUGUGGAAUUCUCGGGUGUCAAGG` is reported as 0.483.
`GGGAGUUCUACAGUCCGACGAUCAAGUCCUGUGCUACACAUCGUAUGUACCGAAUCGGUUUUGGGGUUUUGGUUUUGGGGAAAGUAUUAUGUUACGCCGUUCGGAUCUGCACUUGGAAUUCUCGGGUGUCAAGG` has a log2 enrichment of -0.256.

Sample 2
Target: Sal-like protein 4, full length isoform B (SALL4, Homo sapiens, UniProt Q9UJQ4-2, residues 1-616)
Technique: universal PBM
Form: double-stranded DNA, one strand shown
Matrix: in vitro
Tested at: not given
Setting: 8-mer, flanks averaged, mean of replicates
Reading: higher = stronger binding
The E-score of `CTACCAAC` is reported as 0.0381.
`TAACGGGA` gave an E-score of 0.0898.
`ATACGGGG` gave an E-score of -0.0981.
`CTCTACAG` has an E-score of -0.074.
`AGAACGCA` gave an E-score of -0.00317.
`CGTGCTGC` has an E-score of -0.274.
`GTAGACAC` gave an E-score of -0.0996.
With `AGTACGTC` the E-score was 0.0502.
With `GATCGCAC` the E-score was -0.0773.
For `GAATTTTA`, the E-score was 0.306.
With `GCGCACCC` the E-score was -0.263.
`AGGGACGC` gave an E-score of -0.262.
For `ACCACCCC`, the E-score was -0.191.
The E-score of `ACCGCAAC` is reported as -0.129.
`GAAGGCGA` gave an E-score of -0.234.
`AGCATTCC` has an E-score of -0.0882.
`AGCCGTAC` gave an E-score of -0.12.
With `CAGGGCCG` the E-score was -0.252.
`TGCCTCAA` has an E-score of 0.00205.
`CATGTGAA` gave an E-score of -0.0314.
For `CATCCTAA`, the E-score was 0.115.
With `ACAGGGGC` the E-score was -0.257.
For `ATGGCCAG`, the E-score was 0.058.
`ACAATGCG` gave an E-score of 0.0602.

Sample 3
Target: ABI1, truncated, D143A, DHFR fusion (Arabidopsis thaliana)
Technique: DHFR PCA, deep sequencing
Matrix: yeast
Setting: methotrexate growth selection, single substitutions
With: (+)-ABA 200 µM
Reference: wild-type fitted maximum
Reading: higher = stronger binding
Starting sequence: PYL1, truncated, DHFR fusion (Arabidopsis thaliana); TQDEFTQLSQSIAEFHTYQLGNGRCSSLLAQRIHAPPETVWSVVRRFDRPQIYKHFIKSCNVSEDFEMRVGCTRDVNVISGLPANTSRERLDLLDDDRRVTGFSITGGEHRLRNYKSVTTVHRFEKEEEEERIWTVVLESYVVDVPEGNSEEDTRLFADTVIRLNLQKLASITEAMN; partner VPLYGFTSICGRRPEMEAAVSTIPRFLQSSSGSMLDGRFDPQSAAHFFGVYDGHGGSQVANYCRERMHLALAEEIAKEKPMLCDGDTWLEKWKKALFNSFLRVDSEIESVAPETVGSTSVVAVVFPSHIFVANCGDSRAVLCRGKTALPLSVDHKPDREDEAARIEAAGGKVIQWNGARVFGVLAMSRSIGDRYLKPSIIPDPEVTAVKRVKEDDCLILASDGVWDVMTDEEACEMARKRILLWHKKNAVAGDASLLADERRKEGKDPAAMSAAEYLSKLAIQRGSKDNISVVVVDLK
For `I172N`, “relative binding score” read 40.5%.
`S59H`: “relative binding score” 93.6%.
Under “relative binding score”, `R132W` is recorded as 91.2%.
`R113K` — result for “relative binding score”: 110%.
For `I162G`, “relative binding score” read 7.17%.
Under “relative binding score”, `V121G` is recorded as -2.68%.
For `I33R`, “relative binding score” read -1.89%.
For `W134T`, “relative binding score” read 103%.
`S171E`: “relative binding score” 112%.
For `L156P`, “relative binding score” read -4.32%.
Under “relative binding score”, `R123T` is recorded as 109%.
`W41H`: “relative binding score” 11.9%.
Under “relative binding score”, `R90T` is recorded as 90.6%.
`R46D` — result for “relative binding score”: 68.4%.
For `G81K`, “relative binding score” read 50.1%.
`V142C`: “relative binding score” 95.5%.

Sample 4
Target: RNA binding protein fox-1 homolog 2, RRM domain, GST-SBP tag (RBFOX2, Homo sapiens, UniProt O43251-10, residues 100-194)
Technique: RNA Bind-n-Seq
Form: RNA
Matrix: in vitro
Tested at: 365 nM
Setting: natural RNA segment, single round, ends assumed
Reference: no-protein control
Reading: higher = stronger binding
Target sequence (chain): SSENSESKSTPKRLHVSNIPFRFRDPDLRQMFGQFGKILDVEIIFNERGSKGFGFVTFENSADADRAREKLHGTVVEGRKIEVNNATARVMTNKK
For `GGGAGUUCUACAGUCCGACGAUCAGUGUCCCUUUUGUGUCUGGCUUGCUGAGUAUAGAAGCUGUCACCUGGACGAUUCUGCUCCUCAGCUCCAAAGAAUCCUGGGGUCAACGUCCCAGGCCAGCCGCAUGGGAUGGAAUUCUCGGGUGCCAA`, “RBNS enrichment (R)” read 0.269.
`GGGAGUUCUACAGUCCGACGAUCCAUUAUGAUUCAUAACAGUGACAAUCACAGUUAUGAGGUAGAAAGGAAAGGGAUUUUAUGGUUGGGGGUUAGUCCAACAAGAGGGACAGUGUUAAUGCUUCUGAAGCAUCUGGAAUUCUCGGGUGCCAA` — result for “RBNS enrichment (R)”: 0.483.
`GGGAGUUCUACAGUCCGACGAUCGGGCAUUCACAACUCUUGAGUUUGGUGUUCAGGCAUCAUUAUUAAAAAGUGGAGUCCUAUGUACCAGACUGAGUUUUUACAAAUGAUUUGCAGGCUAGACAUAACCCACUUGGAAUUCUCGGGUGCCAA`: “RBNS enrichment (R)” 0.3.
For `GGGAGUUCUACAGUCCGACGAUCCAGCAUCAGGGCAACCCACUUCAGUGUUCUCUUUUAAAAAUCAGUUCCUGCUGGGUGUGGUGGCGCAAGCCUUUAAUCCCUGCACUUGGGAGGCAGCUGCAGAUGGGAUUUGGAAUUCUCGGGUGCCAA`, “RBNS enrichment (R)” read 0.277.
`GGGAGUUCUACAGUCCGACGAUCCAUAAUAGGUCCUCUUGUCAGAGAUCCUCUACCACAGACAUUAAUAGCUGAGCAGGAGCCACAUGGAUUGAUUGUAUCCACUCACCAUUGACGAUGGCAUUGAGCGUAGCUGGAAUUCUCGGGUGCCAA`: “RBNS enrichment (R)” 0.471.
`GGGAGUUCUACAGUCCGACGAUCAGAAUUUUGUUAAAGAAAUUCUAAAAUUUUUAAACACCUGCUCUCCACAAUAAAUCACAAACACUAAAAUAAAAUUACUUCCAUAUAAAUAUUAUUUUCUCUUUUGGUGUUGGAAUUCUCGGGUGCCAA` — result for “RBNS enrichment (R)”: 0.805.
For `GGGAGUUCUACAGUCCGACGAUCUAAAUUGGCAUAAAGCUGCAUACUUUUUGUCUAGCUGUUUGAUUUCAUUUUUUAAUAUAGUAUGCCAAUUUUGUGACUGUUACCAUGUGAAAGUCCUGUUGAAAUGAACAUGGAAUUCUCGGGUGCCAA`, “RBNS enrichment (R)” read 0.66.
`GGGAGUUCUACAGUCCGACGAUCGCUUAUGUAGCACUUCUGGACCCUGCUAUAAGCUGAGAAGUCUAGAGGUUGGUUUGGGGACCAACCAAGCUACCAACCUUAAGGGUAACUUGGUCUCGAUUUAGGAGCCUUGGAAUUCUCGGGUGCCAA`: “RBNS enrichment (R)” 0.334.
Under “RBNS enrichment (R)”, `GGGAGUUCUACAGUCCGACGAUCUUUAAGGAGCCUCAAGUGAAAAAAACAAAAACAAAACAAAAAACCCAGGGCCACUGGGGGAAUGUUUUAUGAAAUCAUGUAGAGUGCUGUAGUUUUGAAGUCAUCCGUUUUGGAAUUCUCGGGUGCCAA` is recorded as 0.367.
For `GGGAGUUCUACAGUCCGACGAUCGGUUUCAGGGCACUGAAGCCUUCCCGAAGUGCGUACACAUUCUGGGGAGUGUGCUCCAGCUGCCCCCGACUUGUUUGGGUGAUCUCUCUGGGGCGGCACGUUUUACUCUUUGGAAUUCUCGGGUGCCAA`, “RBNS enrichment (R)” read 0.324.
`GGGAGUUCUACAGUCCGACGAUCGCAAUAGGACAAUUUCCAAUUUAAUUUAGAUCCUCUAAUCUUUCUACAUGGACAAGCUGUUUUCUUUUCUAGGUUACUGAUAACCCCUACAAUUUUCGACUUAACUUCAAUGGAAUUCUCGGGUGCCAA` — result for “RBNS enrichment (R)”: 0.495.
Under “RBNS enrichment (R)”, `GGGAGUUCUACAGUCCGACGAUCACCGGGUAUACCCUUUUCUUUAGCACUGCUAUCCUUUUUGUCUUCAGCACAAAUAAGAUGUUCAAGUGAGCCAGAAGCAAGAAGAGCCAUUUUAGUCUUCAUAGCUAUUGUGGAAUUCUCGGGUGCCAA` is recorded as 0.287.

Excerpt of the above (sample 1):
For `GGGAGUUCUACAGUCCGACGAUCUGUGCUACACAUCGUAUGUACCGAAUCGGGGCCCCCCCGGGCCCCCCCGGGGCCCCCCCGGGAAAGUAUUAUGUUACGCCGUUCGGAUCUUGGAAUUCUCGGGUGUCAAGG`, the log2 enrichment was -0.689.
For `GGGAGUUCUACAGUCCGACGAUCUGUGCUACACAUCGUAUGUACCGAAUCGGGGCCCCCCCGGGGCCCCCCCGGGCCCCCCCGGGGAAAGUAUUAUGUUACGCCGUUCGGAUCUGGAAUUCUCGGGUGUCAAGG`, the log2 enrichment was -0.814.
`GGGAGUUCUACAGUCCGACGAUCUGGCCCUGGUGGCAUGCGGGGAGGAAGAGGUGGCCUCAUGGAUCGUGGUGGUCCCGGUGGAAUUUUCAGAGGUGGCCGUGGUGGAGACAGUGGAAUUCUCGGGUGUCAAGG` gave a log2 enrichment of 0.383.
For `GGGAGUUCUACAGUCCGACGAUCUCAAGUCCUGUGCUACACAUCGUAUGUACCGAAUCGGCCCGGGGCCCGGGCCCGGAAAGUAUUAUGUUACGCCGUUCGGAUCUGCACUUCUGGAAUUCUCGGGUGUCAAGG`, the log2 enrichment was -0.565.
For `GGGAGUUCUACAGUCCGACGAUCAAGUCCUGUGCUACACAUCGUAUGUACCGAAUCGGUUUUUUUGGUUUUUUUGGAGGAAAGUAUUAUGUUACGCCGUUCGGAUCUGCACUUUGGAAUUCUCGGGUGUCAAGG`, the log2 enrichment was -0.356.
The log2 enrichment of `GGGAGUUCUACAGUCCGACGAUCCUGUGCUACACAUCGUAUGUACCGAAUCGGGGUUUUUUUGGGGUUUUUUUGGGGAAAGGGGAAAGUAUUAUGUUACGCCGUUCGGAUCUGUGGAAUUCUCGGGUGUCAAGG` is reported as 0.483.
`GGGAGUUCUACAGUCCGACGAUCAAGUCCUGUGCUACACAUCGUAUGUACCGAAUCGGUUUUGGGGUUUUGGUUUUGGGGAAAGUAUUAUGUUACGCCGUUCGGAUCUGCACUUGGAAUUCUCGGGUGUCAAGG` has a log2 enrichment of -0.256.
